Measured values pooled from the literature.
Every numbered part comes from another study and shows a few of its results, in no order.

Study 1
Target: RNA binding protein fox-1 homolog 2, RRM domain, GST-SBP tag (RBFOX2, Homo sapiens, UniProt O43251-10, residues 100-194)
Technique: RNA Bind-n-Seq
Molecule type: RNA
Matrix: in vitro
Tested at: 365 nM
Setting: natural RNA segment, single round, ends assumed
Reference: no-protein control
Reading: higher = stronger binding
All sequences stand within: GGGAGUUCUACAGUCCGACGAUC … UGGAAUUCUCGGGUGCCAA
Construct (chain): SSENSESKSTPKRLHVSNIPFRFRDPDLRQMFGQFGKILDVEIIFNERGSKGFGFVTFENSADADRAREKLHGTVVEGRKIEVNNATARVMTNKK
| Strand | RBNS enrichment (R) |
| --- | --- |
| GUUGAUGCUUCUUGGUUGGCAAGACUUGGGUGUAGACAUGAAACCAUCUUACUAAAAGCGUCUUAAAAUGACCAAUUCCAGAAUCAAGCGUAUUCCGUUUUCUUCCUGCA | 1.04 |
| UGGCUGGCCGGCUGGGUCUCCUCCCGGGCUCAGUGGGCCUGGGGCCUCUCUGACGUGGUGCCUGCUGGAGGGAGGCUCGUCGUCACCAGCUGACUGCUGGUCCGGCUUCU | 0.471 |
| ACACUUCUGGGUUUUAGUUGGGAUUUUACAUAGCUUGCAUUUUAGUUCUUUGGUUCUUUGCUGUUUCUAUUAACCCAUAGCAUUAUUUUAAUAAAUGUUAUAAUACCAAC | 0.735 |
| AAAGAUGAUAAUCUUACCUUGCAGUUAUUGACUUUAUAUUCAAUUAUUUACAUCAAAUAAUGAAAUAACUGAAAUGUACAAAUGUCAAAUUUUGGAAGUAUAUUCAAUAC | 0.505 |
| CUUUAGAGGGUGCUGAGAUGGGGACUUGCAGGCUUGGAGCAAGAAAGGGUAGGAGUGCACAUAGGAUAAGACACAUUCCAAAAUCAGGGCCUCCCUGUUUUUUCCUACUC | 0.496 |
| AAACCUGCUGCUCAUCUAACGUUGGUACAUAAUCUCAAAUCAAAAGUUAUCUGUGACUAUUAUAUAGGGAUCACAAAAGUGUCACAUAUUAGAAUGCUGACCUUUCAUAU | 0.811 |
| GACCCUGCGGGCAUCUGACUGGUCUUCCAGCUCAGGAAAAAGAAUUUGAAAGAGGCUUAGCGUGAAGGGGAAUCAAAGAGGAGGUUGUGAUUUGGUCGAAGGUGCCUGGU | 1.63 |
| GCAGCCCCUCUUCAGAGCCCCUGUAAAUGCUAUCGCAGCCUGAGUCCUGCCGCCUUCCAGUUCCUUGGUGUCCCGUGCACCCCUUCUGUCUGUCCCCUUUCAUGGCUGUG | 0.51 |
| GAAAAGUAAGGAGUUAGGUGGCUUGAUAAUAGGCAGGGAAACCAGAUUGUCGGGACUAUGACCUUUUUCUCCAGUAUGCUACCUGAUUUGUUUGGCUGGCCACUAGGUGG | 0.441 |
| UUCCCAGCUGCUGUAACGGAGCCACCUCCAACUCUAACAAUAAACCAAGUUCAUUGCAGAUAGUGUAGUGCUGCUUAGGCUUUUUCUGACUCCAUACAUGCUUAGUUACU | 0.324 |
| UUUUAUUGGUCAGAAAUAAAAUGUGACUGCAACUGUGUGCCCUCCCUUGUCGUGAAUUCCCUGUUUAUCACUUCCAUGCAUGGUUUUAUGCUUCUCAUUUGUUUAUGUAU | 1.46 |
| UUUGGUGCUUUCAACUCAUUGGGAAGAGCUGCAGAUAUUACCAAAAUAGGCUGGCUACAUGAACACUGUCAGAAAUCCCAGACUUGCCCACAAGGAUAAUGCUGCAUUUU | 3.79 |

Study 2
Target: Fragile X messenger ribonucleoprotein 1, C-terminal low-complexity region (Fmr1, Mus musculus, UniProt P35922)
Technique: RNA Bind-n-Seq
Molecule type: RNA
Matrix: in vitro
Tested at: 200 nM
Setting: whole 134-nt RNA, ends assumed
With: 150 mM LiCl
Reference: input library
Reading: higher = stronger binding
Each molecule: 7-deaza-guanosine replaces G
All sequences stand within: GGGAGUUCUACAGUCCGACGAUC … UGGAAUUCUCGGGUGUCAAGG
| Strand | log2 enrichment |
| --- | --- |
| CAAGUCCUGUGCUACACAUCGUAUGUACCGAAUCGGAAAAAGGAAAGGUUUUUGGAAAGUAUUAUGUUACGCCGUUCGGAUCUGCACUUC | -1.78 |
| GCAGGAAGUAAAAACAAAUGGAAAUGCUUCGGAUAGUGGCAGGGGUGGGGGUUGCUGAGGAAAGGGUGGGAUGGGAGUGGGUAAAGAGUU | 1.68 |
| UAACUUUAGAGGAGGAUCUGAUGGAUAUGGCAGUGGACGUGGAUUUGGGGAUGGCUAUAAUGGGUAUGGAGGAGGACCUGGAGGUAGCAA | -0.469 |
| CAAGUCCUGUGCUACACAUCGUAUGUACCGAAUCGGGAGGGAAAGGGUUUUUGGGAAAGUAUUAUGUUACGCCGUUCGGAUCUGCACUUC | -1.15 |
| AAGUCCUGUGCUACACAUCGUAUGUACCGAAUCGGGUUUUUGGUUUUUGGUUUUUGGAAAGUAUUAUGUUACGCCGUUCGGAUCUGCACU | -1.69 |
| CCUGUGCUACACAUCGUAUGUACCGAAUCAAACCCCCAAACCCCCCCAAACCCCCCCAAAAAAGUAUUAUGUUACGCCGUUCGGAUCUGC | 0.887 |
| AAGUCCUGUGCUACACAUCGUAUGUACCGAAUCGGUUUUGGGUUUUGGGUUUUGGGAAAGUAUUAUGUUACGCCGUUCGGAUCUGCACUU | -1.49 |
| AGUCCUGUGCUACACAUCGUAUGUACCGAAUCGGGUUUUGGGGUUUUGGGGUUUUGGAAAGUAUUAUGUUACGCCGUUCGGAUCUGCACU | -1.45 |
| CUCAAGUCCUGUGCUACACAUCGUAUGUACCGAAUCGGAAGGGAAGGGGAAGGGAAAGUAUUAUGUUACGCCGUUCGGAUCUGCACUUCC | -0.0581 |
| AAGUCCUGUGCUACACAUCGUAUGUACCGAAUCGGGGAGGGGAAAAAGGGGUGGGGAAAGUAUUAUGUUACGCCGUUCGGAUCUGCACUU | 0.347 |
| UGGGAGGUGGAUUUUAUUUAUUUUUUUAGCUCAUUUCCAGGGGUGGGAAUUUUUUUUUAAUAUGUGUCAUGAAUAAAGUUGUUUUUGAAA | -0.0662 |

Study 3
Target: Histone acetyltransferase KAT6A, winged helix 2, GST fusion (KAT6A, Homo sapiens, UniProt Q92794, residues 85-181)
Technique: protein binding microarray
Molecule type: double-stranded DNA, one strand shown
Matrix: in vitro
Tested at: not given
Setting: 8-mer, flanks averaged, mean of 2 arrays, mostly near background
Reference: not given
Reading: higher = stronger binding
Construct (chain): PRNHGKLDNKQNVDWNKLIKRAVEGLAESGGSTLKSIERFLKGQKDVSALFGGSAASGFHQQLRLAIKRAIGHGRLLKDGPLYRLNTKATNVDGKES
| Strand | E-score |
| --- | --- |
| TAGTAATA | 0.00351 |
| GTTCTTTA | 0.0196 |
| AGATTTGG | -0.0711 |
| ACTGACTG | -0.128 |
| TCGTCTAA | -0.111 |
| AACAGCCA | 0.133 |
| ATAAACCC | 0.193 |
| ACGAGATA | -0.034 |
| GACGAGCA | 0.11 |
| ATTAATCG | 0.11 |
| CGTCAGTC | -0.136 |
| CGTGGCCC | -0.0119 |
| TACAGATA | -0.068 |
| CCACCTTA | 0.0779 |
| CCAGACCC | -0.12 |
| AGAAGACC | -0.0428 |
| CACATTCA | -0.217 |
| ACCCTCAC | 0.0362 |

Study 4
Target: RING finger protein unkempt homolog, zinc fingers 1-6, GST-SBP tag (UNK, Homo sapiens, UniProt Q9C0B0, residues 30-357)
UniProt Q9C0B0, sequence (30-357, looked up): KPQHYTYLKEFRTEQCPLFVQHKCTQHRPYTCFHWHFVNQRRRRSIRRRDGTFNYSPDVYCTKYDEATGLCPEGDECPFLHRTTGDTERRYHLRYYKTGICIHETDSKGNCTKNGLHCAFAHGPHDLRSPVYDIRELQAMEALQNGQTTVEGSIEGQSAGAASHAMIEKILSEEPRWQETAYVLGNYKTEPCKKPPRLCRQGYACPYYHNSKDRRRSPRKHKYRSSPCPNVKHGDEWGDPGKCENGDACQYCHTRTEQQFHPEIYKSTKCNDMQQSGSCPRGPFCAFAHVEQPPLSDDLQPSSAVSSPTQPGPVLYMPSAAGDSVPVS
Technique: RNA Bind-n-Seq
Molecule type: RNA
Matrix: in vitro
Tested at: not given
Setting: RNA with constant flanks, human-mouse chimeric sites, ends assumed
Reference: input RNA pool
Reading: higher = stronger binding
All sequences stand within: GGGAGUUCUACAGUCCGACGAUC … CAACAGAGGAUUGAGCAUCA
| Strand | bound/input enrichment [ratio] |
| --- | --- |
| ACCAUUUCUGAAUACACGGCUUUGUGUUGUAUUUACUUACGGUAUUAAAUUAUUAUUCUGCUUAGCUUAUAAUAAGGAUAAUUGCAUUUAAAGAGGUUACUGAAUGUUACUCUGAAACUU | 0.334 |
| UAAGUUAAGCUUUUAAUCUUUGUAAAUUCUUAACAUUUUUAUAUUGCCAUGUUUAUUUUUUUUAGAUAAUUUGGUUCAUUAAGUACAUAGCUAAGGUAAUGAACAUCUUUUUCAGUAAUU | 8.22 |
| UUUCUACUGCAGCAAACGAUGCUAAGAAUUAAGGAUCCUAAGAAGUCCCUGGAUUUUUAUACGAGGGUUCUUGGACUGACCCUCCUGCAAAAAUGUGAUUUUCCCAUUAUGAAGUUCUCG | 0.274 |
| GCUCCUCCCCGCUCUGCAGCCUGGGGACACUGGGCUGGGACCAGAAUCCAGCUUUCUUUUAAAACUCUCAGUGUAACUGUAUCCCGUUUUUUUCUUUUUUUUUUAAAUAGUGUAUUUUUU | 15.4 |
| CGCUGGCCCAAGCUGAUGGACUCUGAUCUUGAUCUCUUCUCAGGCACGUGUGCCUUCUCUUAGUCCCUGUUUUCGGGAUGUUAUGAACAGUAUCAUGGUGGUUUGAAAGCACCAGCUUUG | 0.0922 |
| AGAUUCCCCCUCCUGAGACCUCCUCCGAAGUUGGAGUCUCUUACAGAUGGUUCAUCUCCUGUUAGCGUUUUAGUUUGGACCACCCAGCCUUGGACGAUUCCCGCCAACCAGGCAAUUUGC | 1.74 |
| AGAUUCCCCCUCCUGAGACCUCCUCCGAAAUUGGCAUCUCUUACAGAUGCCUCAUCCCCUGUUAGCGUUUUGGUCUGGACCACCCAGCCUUGGACAAUUCCCGCCAACCAGGCAAUUUGC | 0.755 |
| CUGGCACUGUAUCAGAUAUAUUAAUUUUUUAAUGUAGAUAAAAUUUCAAAAAUGAAUGGCUACUUUACACGUUUAACUAGGGUUUUACUAUAUAUGUGUACAUAUGUAUAUAUAUAUAUA | 8.04 |
| ACUCAGAGAUCCACCUCAAUUGAAGUGGGGAGUAAAGGUGUGGCCACCACACCUAACUUGAUGGAUAUAUAUUUUUUUUAAUAUGAAUCUUCCUGUUCUUCAUCCAGAGAAAGAUUUGUU | 0.348 |
| GCUCCUCCCCGCUCUGCAGCCUGGGGACACUGGGCUGGGACCAGAAUCUUAUUUUUUUUUAAAACUCUCAGUGUAACUGUAUCCCGUGACAUUUCAUUUUUUUUAAAUAGUGUAUUUUUU | 13.1 |
| AUCAAGUACUUUGGGGAUAUUAUUAGCGUGGGACAGAGACUGUUGCAAGGAGCUCGGAUCUUAGGGAUUCCAGUUAUCAUAACGGAACAAUACCCCAAAGGACUUGGCAGCACCGUUCAA | 0.235 |

Some of these lines once more (study 3):
| Strand | E-score |
| --- | --- |
| CACATTCA | -0.217 |
| ATTAATCG | 0.11 |
| AACAGCCA | 0.133 |
| TAGTAATA | 0.00351 |
| AGATTTGG | -0.0711 |
